# Published values pooled from the literature.
# Each line is one published result; not all experiments were run side by side. “And” joins repeats or separate records; there may be more than shown. ± marks the error that the study gave.
# ABCG2: Broad substrate specificity ATP-binding cassette transporter ABCG2 (ABCG2, Homo sapiens, UniProt Q9UNQ0)
# Chain of UniProt Q9UNQ0 (whole entry, looked up): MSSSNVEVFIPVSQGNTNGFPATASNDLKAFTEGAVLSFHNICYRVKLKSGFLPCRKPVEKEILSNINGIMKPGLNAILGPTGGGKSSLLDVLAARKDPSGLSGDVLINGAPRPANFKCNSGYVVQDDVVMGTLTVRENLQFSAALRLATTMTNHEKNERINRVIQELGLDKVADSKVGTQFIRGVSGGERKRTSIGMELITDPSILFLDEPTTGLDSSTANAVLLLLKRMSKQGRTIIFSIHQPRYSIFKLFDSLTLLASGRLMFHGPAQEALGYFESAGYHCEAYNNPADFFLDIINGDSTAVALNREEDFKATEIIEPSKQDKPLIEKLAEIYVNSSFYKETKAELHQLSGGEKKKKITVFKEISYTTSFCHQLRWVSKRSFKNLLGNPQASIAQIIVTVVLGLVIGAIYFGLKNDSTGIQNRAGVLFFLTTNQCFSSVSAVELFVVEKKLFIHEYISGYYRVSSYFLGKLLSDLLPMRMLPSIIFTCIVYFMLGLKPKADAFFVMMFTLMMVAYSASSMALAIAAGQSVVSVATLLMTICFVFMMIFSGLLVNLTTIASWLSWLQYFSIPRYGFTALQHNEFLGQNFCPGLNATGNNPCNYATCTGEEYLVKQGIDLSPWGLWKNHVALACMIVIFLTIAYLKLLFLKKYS
# Chain of UniProt Q8IVH8 (whole entry, looked up): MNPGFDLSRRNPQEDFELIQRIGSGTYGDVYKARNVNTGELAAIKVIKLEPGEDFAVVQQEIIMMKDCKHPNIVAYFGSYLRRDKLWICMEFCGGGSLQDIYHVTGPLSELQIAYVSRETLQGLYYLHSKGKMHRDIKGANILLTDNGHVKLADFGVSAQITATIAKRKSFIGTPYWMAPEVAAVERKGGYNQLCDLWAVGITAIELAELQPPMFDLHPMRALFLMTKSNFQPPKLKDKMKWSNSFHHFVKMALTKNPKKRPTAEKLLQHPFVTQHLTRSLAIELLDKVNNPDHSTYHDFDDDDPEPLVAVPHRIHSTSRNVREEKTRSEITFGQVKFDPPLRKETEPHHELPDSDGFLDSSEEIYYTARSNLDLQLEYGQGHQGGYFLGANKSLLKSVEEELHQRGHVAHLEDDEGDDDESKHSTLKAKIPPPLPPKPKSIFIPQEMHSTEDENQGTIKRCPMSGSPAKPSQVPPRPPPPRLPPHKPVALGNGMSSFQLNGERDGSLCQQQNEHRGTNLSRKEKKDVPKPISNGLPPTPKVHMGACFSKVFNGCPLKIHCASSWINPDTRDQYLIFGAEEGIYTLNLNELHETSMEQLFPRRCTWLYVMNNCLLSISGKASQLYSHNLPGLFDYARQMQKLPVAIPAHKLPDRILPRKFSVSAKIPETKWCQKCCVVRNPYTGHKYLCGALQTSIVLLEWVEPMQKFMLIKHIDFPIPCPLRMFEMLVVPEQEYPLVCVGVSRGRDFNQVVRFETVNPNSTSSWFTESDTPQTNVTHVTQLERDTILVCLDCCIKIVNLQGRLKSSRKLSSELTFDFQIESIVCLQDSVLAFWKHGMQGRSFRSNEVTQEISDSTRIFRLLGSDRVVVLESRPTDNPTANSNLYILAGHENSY
# Chain of UniProt Q02294 (whole entry, looked up): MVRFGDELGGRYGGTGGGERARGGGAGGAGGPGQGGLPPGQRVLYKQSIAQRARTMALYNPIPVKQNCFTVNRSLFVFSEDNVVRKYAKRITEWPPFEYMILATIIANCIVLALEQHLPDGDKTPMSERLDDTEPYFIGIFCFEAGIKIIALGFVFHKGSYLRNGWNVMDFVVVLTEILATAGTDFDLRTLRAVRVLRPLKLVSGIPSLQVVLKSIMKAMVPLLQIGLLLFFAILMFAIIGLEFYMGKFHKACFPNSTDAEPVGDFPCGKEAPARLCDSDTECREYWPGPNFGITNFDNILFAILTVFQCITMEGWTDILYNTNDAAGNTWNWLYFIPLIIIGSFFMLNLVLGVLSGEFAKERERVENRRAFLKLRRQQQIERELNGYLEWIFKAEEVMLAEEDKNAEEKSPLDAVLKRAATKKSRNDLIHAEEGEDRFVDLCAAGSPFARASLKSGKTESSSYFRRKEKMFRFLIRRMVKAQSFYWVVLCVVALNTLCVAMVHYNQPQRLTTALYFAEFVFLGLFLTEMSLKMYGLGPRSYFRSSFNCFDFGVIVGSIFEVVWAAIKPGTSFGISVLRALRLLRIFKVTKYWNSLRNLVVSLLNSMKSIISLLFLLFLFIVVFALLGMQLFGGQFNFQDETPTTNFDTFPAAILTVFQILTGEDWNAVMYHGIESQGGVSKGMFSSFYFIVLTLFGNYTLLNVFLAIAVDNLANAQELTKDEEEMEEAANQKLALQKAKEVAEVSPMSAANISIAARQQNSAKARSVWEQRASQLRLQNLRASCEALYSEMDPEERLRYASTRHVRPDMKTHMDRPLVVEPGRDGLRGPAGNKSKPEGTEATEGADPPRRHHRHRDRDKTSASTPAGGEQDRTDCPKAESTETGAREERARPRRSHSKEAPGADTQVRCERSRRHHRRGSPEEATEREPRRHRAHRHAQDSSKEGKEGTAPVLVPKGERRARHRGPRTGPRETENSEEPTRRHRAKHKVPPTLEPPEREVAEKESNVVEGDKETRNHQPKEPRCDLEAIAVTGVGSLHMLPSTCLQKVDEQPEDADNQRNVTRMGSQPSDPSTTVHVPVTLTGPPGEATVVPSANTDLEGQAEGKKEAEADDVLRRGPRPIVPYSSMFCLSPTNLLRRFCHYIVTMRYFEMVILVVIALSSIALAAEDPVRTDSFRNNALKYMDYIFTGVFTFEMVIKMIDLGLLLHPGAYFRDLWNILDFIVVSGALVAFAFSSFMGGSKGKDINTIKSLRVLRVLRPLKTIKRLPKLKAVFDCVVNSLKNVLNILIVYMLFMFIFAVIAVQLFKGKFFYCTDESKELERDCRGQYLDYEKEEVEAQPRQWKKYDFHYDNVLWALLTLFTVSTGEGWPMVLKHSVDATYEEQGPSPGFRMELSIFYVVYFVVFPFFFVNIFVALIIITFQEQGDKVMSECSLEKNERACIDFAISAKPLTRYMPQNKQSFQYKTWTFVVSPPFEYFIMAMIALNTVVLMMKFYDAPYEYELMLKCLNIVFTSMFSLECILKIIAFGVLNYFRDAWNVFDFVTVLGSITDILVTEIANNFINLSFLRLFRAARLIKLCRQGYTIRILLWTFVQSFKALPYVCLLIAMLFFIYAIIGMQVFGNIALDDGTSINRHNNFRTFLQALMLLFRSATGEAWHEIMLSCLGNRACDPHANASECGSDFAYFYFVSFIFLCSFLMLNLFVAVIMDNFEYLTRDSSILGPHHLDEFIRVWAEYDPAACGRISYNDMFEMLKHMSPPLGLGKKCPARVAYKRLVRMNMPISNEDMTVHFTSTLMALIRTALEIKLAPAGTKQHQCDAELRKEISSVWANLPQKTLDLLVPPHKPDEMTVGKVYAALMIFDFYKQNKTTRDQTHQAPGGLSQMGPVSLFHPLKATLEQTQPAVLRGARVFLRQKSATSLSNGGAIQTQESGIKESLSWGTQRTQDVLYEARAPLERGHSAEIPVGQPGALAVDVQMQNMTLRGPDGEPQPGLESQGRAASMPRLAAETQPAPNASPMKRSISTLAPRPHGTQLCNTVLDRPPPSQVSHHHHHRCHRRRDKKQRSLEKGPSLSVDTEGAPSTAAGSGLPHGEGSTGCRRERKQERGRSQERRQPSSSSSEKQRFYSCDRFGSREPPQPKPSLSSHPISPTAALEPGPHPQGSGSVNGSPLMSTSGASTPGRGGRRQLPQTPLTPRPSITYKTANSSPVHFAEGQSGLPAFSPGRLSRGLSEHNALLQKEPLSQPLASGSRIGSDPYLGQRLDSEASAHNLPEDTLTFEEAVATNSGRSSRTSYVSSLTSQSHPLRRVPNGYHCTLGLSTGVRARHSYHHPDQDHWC
# Chain of UniProt Q9BZL6 (whole entry, looked up): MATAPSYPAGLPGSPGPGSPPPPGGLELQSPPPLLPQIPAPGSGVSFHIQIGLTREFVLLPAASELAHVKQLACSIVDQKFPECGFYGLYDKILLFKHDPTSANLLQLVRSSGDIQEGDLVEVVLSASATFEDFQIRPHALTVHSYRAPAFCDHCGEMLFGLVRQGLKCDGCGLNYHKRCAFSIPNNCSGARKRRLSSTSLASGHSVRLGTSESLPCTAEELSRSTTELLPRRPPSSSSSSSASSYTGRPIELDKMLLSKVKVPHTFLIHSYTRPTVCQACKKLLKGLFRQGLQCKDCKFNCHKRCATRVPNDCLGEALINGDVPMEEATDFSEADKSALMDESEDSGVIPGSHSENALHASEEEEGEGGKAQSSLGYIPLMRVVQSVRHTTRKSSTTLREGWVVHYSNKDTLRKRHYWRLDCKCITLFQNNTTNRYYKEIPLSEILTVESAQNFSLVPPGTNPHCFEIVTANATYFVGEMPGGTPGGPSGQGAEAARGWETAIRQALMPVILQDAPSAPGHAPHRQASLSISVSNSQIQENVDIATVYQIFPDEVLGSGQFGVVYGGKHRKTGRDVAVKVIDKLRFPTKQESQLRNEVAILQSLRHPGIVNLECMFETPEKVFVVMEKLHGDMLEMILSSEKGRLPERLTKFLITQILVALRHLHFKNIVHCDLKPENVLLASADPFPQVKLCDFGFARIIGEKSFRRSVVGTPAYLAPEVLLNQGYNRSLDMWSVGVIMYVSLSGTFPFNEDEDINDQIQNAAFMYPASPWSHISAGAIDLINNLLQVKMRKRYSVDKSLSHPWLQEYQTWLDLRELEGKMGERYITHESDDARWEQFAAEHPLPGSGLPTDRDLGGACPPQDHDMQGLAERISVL
SMILES,target or system,test,test system,conditions,how to read,endpoint,result
CC1(F)CN(C(=O)Cn2c(=O)c(C(=O)NCc3ccc(Cl)cc3)cc3nc(N4CCN(CCN)C4=O)cnc32)C1,Epstein-Barr virus,qPCR,,retest 1,baseline: CC50 over EC50,selectivity index,92.6
COc1ccccc1-c1n[nH]c2nc(NC3CCN(C(=O)Cc4ccc(F)cc4F)CC3)ncc12,,"bead binding, competition bead pull-down, item: LMJF.21.1552",Leishmania donovani axenic amastigote extract,10 µM,baseline: vehicle,relative abundance,0.98
CC(C)[C@H]1NC(=O)C[C@H]2/C=C/CCSSC[C@@H](NC1=O)C(=O)N[C@H](Cc1cccc3ccccc13)C(=O)NCC(=O)O2,"PRKD2 (Homo sapiens, UniProt Q9BZL6)","enzyme activity, inhibitor",,10 µM,,inhibition,-0.4%
Cc1cc(-c2ccc3ccccc3c2)nnc1NCCN1CCN(C)CC1,ABCG2,"transporter uptake, inhibitor",,10 µM,,inhibition,0%
CN1CC[C@]23c4c5ccc(O)c4O[C@H]2[C@H](O)CC[C@@]3(O)[C@H]1C5,,,,,,"Δlog k, isomerization effect",-0.07 log units
Cc1ccc(OC2CN(C)C2)cc1C(=O)N[C@H](C)c1cc(-c2cnn(C)c2)nc2ccccc12,Vero E6,,,500 µM,,viability,0.495% and 0.33% and 0.165%
COc1ccccc1-c1n[nH]c2nc(N[C@H]3CC[C@H](NS(=O)(=O)CC(C)C)CC3)ncc12,,"bead binding, competition bead pull-down, item: LINJ.32.0890",Leishmania donovani extract,10 µM,baseline: vehicle,relative abundance,0.87
O=C1CC[C@@]2(O)[C@H]3Cc4ccc(O)c5c4[C@@]2(CCN3CCc2ccccc2)[C@H]1O5,,PAMPA-BBB,porcine brain lipid,"500 µM, 4 h, pH 7.4, 1% DMSO",,Papp,488 nm/s
O=C(O)CCCOc1ccc(O)cc1-c1cc(-c2ccccc2C(F)(F)F)n(-c2ccccc2)n1,Escherichia coli,Ames test,WP2 uvrA,"concentration not given, with metabolic activation",,growth inhibitory concentration,≥ 625 µg/plate
CN(C)c1ccc(-c2nc3ccccc3n2CCCOc2ccccc2)cc1,Ba/F3,cytotoxicity,,3 days,,IC50,> 1.25 µM
CC(C)N1CN(C2c3ccccc3CCc3ccccc32)n2cc(C(=O)O)c(=O)c(O)c2C1=O,,,bovine cells,,,CC50,> 10 µM
COc1ccc2c3c1O[C@H]1[C@H](O)CC[C@H]4[C@@H](C2)N(C)CC[C@@]341,,pH-potentiometric titration,,,baseline: O-methyl derivative,"Δlog K, isomerization effect",-0.09 log units
O=c1n(CCNCCOS(=O)(=O)c2ccccc2)c(=O)n(S(=O)(=O)c2ccccc2)c(=O)n1S(=O)(=O)c1ccccc1,HUVEC,"cell growth or viability, MTT",,"200 µg/mL, 24 h",,viability,35.2%
Cc1ccc(O[C@H]2CCN(C)C2)cc1C(=O)N[C@H](C)c1cc(-c2cnn(C)c2)nc2ccccc12,Vero E6,,,3.906 µM,,viability,101% and 97.4% and 97.6%
COc1ccc2c3c1O[C@H]1[C@H](O)CC[C@@]4(O)[C@@H](C2)N(C)CC[C@]314,,pH-potentiometric titration,,,baseline: O-methyl derivative,"Δlog K, 14-hydroxylation effect",0.66 log units
CNC(=O)C[C@H](Cc1ccc(F)cc1)NC(=O)[C@@H](Cc1ccc(Cl)cc1Cl)NC(=O)[C@H](N)Cc1ccccc1[N+](=O)[O-],Huh-7-ACE2,CellTiter-Glo,,"0.00305 µM, 48 h, unit not given",baseline: DMSO,viability,1.06 and 1.05 and 1.01
CCn1ccc(-c2cc([C@@H](C)NC(=O)c3cc(OCCN(C)C)ccc3C)c3ccccc3n2)n1,Vero E6,,,125 µM,,viability,6.17% and 0.475% and 0.316%
CN(C)[C@H]1C[C@@]23CC[C@@]4(O2)C(=CC[C@]2(C)[C@@H](c5ccc6ccncc6c5)CC[C@H]24)C=C3[C@@H](O)[C@@H]1O,"MAP4K3 (Homo sapiens, UniProt Q8IVH8)","ATP probe labelling, inhibitor, KiNativ profiling",,1 µM,,inhibition,-5.4%
Cc1ccc(OC[C@@H]2CCN2C)cc1C(=O)N[C@H](C)c1cc(-c2cnn(C)c2)nc2ccccc12,African green monkey cells,,,7.812 µM,,viability,98.6%
Cc1ccn2c(-c3csc(Nc4ccccn4)n3)c(C)nc2c1,Ba/F3,cytotoxicity,,3 days,,IC50,> 1.25 µM
CN(C)CCCNC(=O)[C@@H]1NC(=O)[C@@H]2Cc3ccc(cc3)Oc3cc4cc(c3O)-c3ccc5c(c[nH]c5c3)C[C@@H](NC(=O)C(NC(=O)CCCCCN)c3ccc(O)cc3)C(=O)N[C@H](c3ccc(O)cc3)C(=O)N[C@H]4C(=O)N[C@@H](C(=O)N2C)c2ccc(cc2)Oc2cc1ccc2O (some centres unmarked),human red blood cells,,,"128 µg/mL, 1 h, 37 °C, 1% DMSO",,hemolysis,1.42%
CCn1ccc(-c2cc([C@@H](C)NC(=O)c3cc(N4CCN(C)CC4)ccc3C)c3ccccc3n2)n1,Vero E6,,,3.906 µM,,viability,94.5% and 97.5% and 98.2%
CC(C)(C)C(=O)OCOP(=O)(OCOC(=O)C(C)(C)C)C1CCCN(O)C1=O (centres unmarked),HOP-62,,,,,log GI50,-6.31 log M
O=C1NC2(CC2)COc2ncc(F)cc2[C@H]2COCCN2c2ccn3ncc1c3n2,,,"Sprague-Dawley rat, female, serum","oral, 2.5 mg/kg/day, end of recovery, 4-week subacute toxicity",,serum LDH activity,560 ± 101 U/L
NC[C@]1(CC(=O)O)CC[C@@H]([18F])CC1,,"PET, one-tissue compartment model","rhesus monkey, amygdala",intravenous,,K1,0.001 mL/min/cm3
COc1ccc2c3c1O[C@H]1[C@@H](O)C=C[C@@]4(OC(C)=O)[C@@H](C2)N(C)CC[C@]314,,,octanol/buffer,"1 h, pH 7.4",,logD,0.63
CCCCCC1=C(NCC)C(=O)C(C/C=C(\C)CCC=C(C)C)=C(O)C1=O,human peripheral lymphocytes,,,"10 µg/mL, 3 h, without S9, harvest 27 h",,cytostasis,3%
COc1ccc2c3c1O[C@H]1[C@@H](O)C=C[C@H]4[C@@H](C2)N(CCc2ccccc2)CC[C@@]341,,,octanol/phosphate buffer,"1 h, pH 7.45, ionic strength 0.15 M",,logD,2.32
COc1cc2c(cc1NC(=O)c1cncn1C)C[C@H]1[C@H]3CCCC[C@@]23CCN1C,,,"C57BL/6 mice, plasma","oral, 50 µg/g, 30 min",,plasma concentration,12 µg/mL and 10.2 µg/mL and 12.9 µg/mL and 14.4 µg/mL
Cc1cc(C(=O)Nc2nc3cccc(C)c3n2[C@H]2CCCCN(C(=O)/C=C/CN(C)C)C2)ccn1,Trypanosoma brucei,,"STIB795, mouse acute HAT model","oral, 7.5 mg/kg once daily for 4 days, day 10",baseline: mice,survival,33.3%
O=C(C=Cc1ccc(O)c(O)c1)OC1CC(O)(C(=O)O)CC(OC(=O)C=Cc2ccc(O)c(O)c2)C1O (centres unmarked),Vero E6,,,25 µM,,cytotoxicity,0%
O=C(O)c1cn2c(c(O)c1=O)C(=O)N(Cc1ccc(F)cc1F)C[C@@H]2C(c1ccccc1)c1ccccc1,,,dog cells,,,CC50,> 10 µM
CC(=O)NCCCC[C@@H]1NC(=O)[C@H](Cc2c[nH]c3c(C)cccc23)NC(=O)[C@H]([C@@H](C)O)NC(=O)[C@H](CC(N)=O)NC(=O)[C@@H](NC(C)=O)C(C)(C)SSC(C)(C)[C@@H](C(=O)N[C@@H](Cc2ccc(OCCN)cc2)C(=O)N[C@@H](Cc2ccc3ccccc3c2)C(=O)NC2(C(=O)N[C@@H](CCC(=O)O)C(=O)N[C@@H](CC(N)=O)C(=O)N[C@@H](Cc3cccnc3)C(=O)N(C)CC(N)=O)CCOCC2)NC1=O,ABCG2,"transport, inhibitor",LLC-PK1 expressing ABCG2,"8.48 µM, 90 min, together with: [3H]prazosin",,efflux ratio,10.8
Cc1nc2cccc(OCC(C)(C)C(=O)NC(C)C)c2c(N)c1C(=O)[O-].[Na+],Salmonella typhimurium,,TA1537,"0.32 mg per plate, without S9, preincubation",,revertant colonies per plate,13 ± 1
Cc1ccc(OCCN(C)C)cc1C(=O)N[C@H](C)c1cc(-c2ccco2)nc2ccccc12,Vero E6,,,3.906 µM,,viability,101% and 99.8%
O=C1CC[C@H]2[C@H]3Cc4ccc(O)c5c4[C@@]2(CCN3CCc2ccccc2)[C@H]1O5,,PAMPA-BBB,porcine brain lipid,"500 µM, 4 h, pH 7.4, 1% DMSO",,Papp,359 nm/s
CC[C@H](C)[C@H](NC(=O)[C@H](CO)NC(=O)[C@H](Cc1ccc(O)cc1)NC(=O)[C@H](Cc1ccc(O)cc1)NC(=O)[C@H](CC(N)=O)NC(=O)CNC(=O)[C@H](CO)NC(=O)[C@H](Cc1ccc(O)cc1)NC(=O)[C@H](CO)NC(=O)[C@H](CO)NC(=O)[C@H](CC(N)=O)NC(=O)COCCOCCNC(=O)CN1CCN(CC(=O)O)CCN(CC(=O)O)CCN(CC(=O)O)CC1)C(=O)N[C@@H](CC(C)C)C(N)=O [copper-64 labelled],,dynamic PET,"KPC mouse Ptf1a-CreER tdTomato, pancreas","intravenous, 4.6 MBq/mouse, 1.1 min, 84 d after tamoxifen",,tissue uptake,13.3 %ID/mL
COc1ccc2c3c1O[C@H]1[C@@H](O)C=C[C@H]4[C@@H](C2)N(CC2CCC2)CC[C@@]341,,PAMPA-BBB,porcine brain lipid,"500 µM, 4 h, pH 7.4, 1% DMSO",,Papp,535 nm/s
CS(C)(=O)=Nc1ccc(-c2ccc(-c3nc4cc(O[C@@H]5CO[C@H]6[C@@H]5OC[C@H]6O)[nH]c4cc3F)cc2)cc1,"Cacna1b (Rattus norvegicus, UniProt Q02294)","ligand displacement, radioligand",,10 µM,,inhibition,-16%
Cc1ccc(OCCN(C)C)cc1C(=O)N[C@H](C)c1cc(-c2cncs2)nc2ccccc12,Vero E6,,,31.25 µM,,viability,99.8% and 88.1%
O=C1NC(=O)c2c1c1cc(F)c[n+]3c1c1c2c2cc(O)ccc2[n]1[Ru-4]312([N]=C=S)[S+]3CC[S+]1CC[S+]2CC3 (centres unmarked),"VRK2 (Homo sapiens, UniProt Q86Y07)",enzyme activity,,"100 nM, human enzyme, together with: 10 µM ATP",baseline: untreated,remaining activity,63%
Nc1c2c(nc3sc4c(c13)CCCCC4)CCCC2,HEp-2,"cell growth or viability, ATP luminescence",,72 h,,IC50,> 10.6 µM
Cc1ccc(OCCN(C)C)cc1C(=O)N[C@H](C)c1cc(-c2cnn(CC(=O)N(C)C)c2)nc2ccccc12,Vero E6,,,3.906 µM,,viability,98% and 95.5%
COc1ccnc(C(=O)N[C@H]2COC(=O)[C@H](Cc3ccccc3)[C@@H](OC(=O)C(C)C)[C@H](C)OC2=O)c1O,Oncorhynchus mykiss,flow-through,,96 h,,LC50,7.3 ng/mL

# Repeated from above:
SMILES,target or system,test,test system,conditions,how to read,endpoint,result
COc1ccc2c3c1O[C@H]1[C@@H](O)C=C[C@@]4(OC(C)=O)[C@@H](C2)N(C)CC[C@]314,,,octanol/buffer,"1 h, pH 7.4",,logD,0.63
COc1ccccc1-c1n[nH]c2nc(NC3CCN(C(=O)Cc4ccc(F)cc4F)CC3)ncc12,,"bead binding, competition bead pull-down, item: LMJF.21.1552",Leishmania donovani axenic amastigote extract,10 µM,baseline: vehicle,relative abundance,0.98
CN(C)CCCNC(=O)[C@@H]1NC(=O)[C@@H]2Cc3ccc(cc3)Oc3cc4cc(c3O)-c3ccc5c(c[nH]c5c3)C[C@@H](NC(=O)C(NC(=O)CCCCCN)c3ccc(O)cc3)C(=O)N[C@H](c3ccc(O)cc3)C(=O)N[C@H]4C(=O)N[C@@H](C(=O)N2C)c2ccc(cc2)Oc2cc1ccc2O (some centres unmarked),human red blood cells,,,"128 µg/mL, 1 h, 37 °C, 1% DMSO",,hemolysis,1.42%
CN(C)[C@H]1C[C@@]23CC[C@@]4(O2)C(=CC[C@]2(C)[C@@H](c5ccc6ccncc6c5)CC[C@H]24)C=C3[C@@H](O)[C@@H]1O,"MAP4K3 (Homo sapiens, UniProt Q8IVH8)","ATP probe labelling, inhibitor, KiNativ profiling",,1 µM,,inhibition,-5.4%
